Measured values collected from several papers.
pKd: −log10 of the molar value.
Nuclear receptor subfamily 2 group C member 2 ligand-binding domain: Nuclear receptor subfamily 2 group C member 2, ligand-binding domain (Homo sapiens, UniProt P49116)
Chain of UniProt P49116 (whole entry, looked up): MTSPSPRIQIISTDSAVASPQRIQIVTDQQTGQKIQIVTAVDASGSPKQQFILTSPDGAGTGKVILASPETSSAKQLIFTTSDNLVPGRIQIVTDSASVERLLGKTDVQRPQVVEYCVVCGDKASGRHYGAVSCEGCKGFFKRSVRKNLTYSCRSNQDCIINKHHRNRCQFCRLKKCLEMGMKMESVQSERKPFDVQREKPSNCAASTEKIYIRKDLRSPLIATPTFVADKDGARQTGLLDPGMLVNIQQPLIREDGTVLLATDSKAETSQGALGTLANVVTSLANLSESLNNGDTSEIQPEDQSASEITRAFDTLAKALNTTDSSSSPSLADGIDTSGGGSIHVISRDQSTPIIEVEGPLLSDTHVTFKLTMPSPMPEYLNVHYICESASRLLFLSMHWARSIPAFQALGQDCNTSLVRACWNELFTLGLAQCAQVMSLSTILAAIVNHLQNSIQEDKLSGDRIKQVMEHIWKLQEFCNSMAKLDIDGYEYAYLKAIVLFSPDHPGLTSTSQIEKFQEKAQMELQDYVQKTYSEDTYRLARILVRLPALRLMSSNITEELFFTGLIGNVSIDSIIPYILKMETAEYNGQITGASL

Under “patients discontinuing for AE”, `C[C@@H](Nc1cc(F)cc(F)c1)c1cc(C(=O)N(C)C)cc2c(=O)cc(N3CCOCC3)oc12` is recorded as 0% (measured: Pruritus; advanced solid tumour patients; oral, dose not given, dose expansion).
For `CCOC(=O)CCNc1cc(N2CCc3ccccc3CC2)nc(-c2cccnc2)n1`, the viability was 93.6% (OCI-Ly1; 0.1 µM, 120 h).
`C=CC(=O)NC1CCN(c2ncc3ncnc(Nc4ccc(Oc5ccc6c(c5)ncn6C)c(C)c4)c3n2)CC1`: “patients with Lymphadenopathy” 0% (male patients; oral, dose not given, on-treatment adverse events).
Under “patients with at least 1 TEAE”, `COc1ccc([C@@H](O)c2cc(-c3ncnc4cc(N5CCOCC5)ccc34)c(F)cc2Cl)nn1` is recorded as 100% (locally advanced rectal cancer; all dose levels overall, with: capecitabine and radiotherapy).
`COc1cc2nccc(Oc3ccc(NC(=O)c4cc5c(n(-c6ccccc6)c4=O)CCCC5=O)nc3)c2cc1OC`: “TEAEs, drug-related, patients with” 60% (patients with relapsed/refractory AML; oral, 3 mg once daily).
`CNC(=O)c1cc(Oc2ccc(NC(=O)Nc3cc(C(C)(C)C)nn3-c3ccc4ncccc4c3)c(F)c2)ccn1`: “patients with grade 1 cardiac disorders” 7% (patients; oral, dose not given, cycles 1 and 2, Medium Cmax subgroup).
The pKd of `CCCNCC(O)COc1ccccc1C(=O)CCc1ccccc1` (stereo not drawn) is reported as 10.31 (Nuclear receptor subfamily 2 group C member 2 ligand-binding domain; SPR imaging).
With `CCOc1c([C@H](C)n2nc(C)c3c(N)ncnc32)cc(Cl)c(F)c1[C@@H]1CNC(=O)C1` the patients was 0% (measured: QTcF above 500 ms; previously treated B-cell malignancy; oral, 10 mg once daily, baseline QTcF ≤450 ms).
For `O=C(Nc1nc2cccc(-c3ccc(CN4CCS(=O)(=O)CC4)cc3)n2n1)C1CC1`, “patients with adverse event” read 0% (measured: bile reflux into stomach; rheumatoid arthritis patients; oral, 300 mg once daily, 4 weeks, any relatedness).
The pKd of `N#CC[C@H](C1CCCC1)n1cc(-c2ncnc3[nH]ccc23)cn1` is reported as 9.91 (Nuclear receptor subfamily 2 group C member 2 ligand-binding domain; SPR imaging).
`COc1cc(Nc2ncc3c(n2)-c2ccc(Cl)cc2C(c2c(F)cccc2OC)=NC3)ccc1C(=O)O` — result for “patients with adverse event”: 25% (measured: oral mucositis, grade 1; cancer patients, phase 1/2; dose not given, with: pembrolizumab).
Under “patients with adverse events”, `C[C@@H](c1ccc2nccn2c1)n1nnc2ncc(-c3cnn(C)c3)nc21` is recorded as 1% (measured: treatment-related grade ≥3 Anemia; EGFR-mutant MET-altered NSCLC; oral, dose not given, all).
`CNC(=O)c1ccc(-c2cnc3ncc(Cc4ccc5ncccc5c4)n3n2)cc1F` — result for “patients with adverse event”: 24% (measured: Diarrhea, all grades; cancer patients; oral, 600 mg twice daily, expansion cohort, any causality).
The viability of `COc1ccccc1S(=O)(=O)Nc1ccc2c(c1)CN(C)C(=O)N2` is reported as 183% (OCI-Ly1; 0.1 µM, 120 h).
`FC(F)(F)c1ccc(CNc2ccc(Cc3c[nH]c4ncc(Cl)cc34)cn2)cn1`: “patients with treatment-related adverse event” 2% (measured: alanine aminotransferase increased; non-TGCT solid tumour patients; oral, 1000 mg/day, grade 3 or higher).
`Cc1cc(NC2CCN(C(=O)OC3CCN(C(=O)/C=C/CN(C)C)C3)CC2)n2ncc(C(C)C)c2n1` (stereo not drawn): “patients with adverse event” 11% (Phase I dose escalation CTCAE v4.0, measured: Dizziness; patients with advanced solid tumours; dose not given, all dose schedules any grade).
`Cc1cc(-c2nnc(N)nc2-c2ccc(F)cc2)cc(Cl)n1` — result for “patients with immune-mediated AE”: 0% (measured: Arthritis; IO-naive mCRPC patients, male; oral, dose not given, treatment-related, grade 1).
Under “patients with Hyperhidrosis”, `NC(=O)N1c2ccccc2C=Cc2ccccc21` is recorded as 7% (male patients; oral, dose not given, on-treatment adverse events).

For quick reference, copied from above:
The pKd of `CCCNCC(O)COc1ccccc1C(=O)CCc1ccccc1` (stereo not drawn) is reported as 10.31 (Nuclear receptor subfamily 2 group C member 2 ligand-binding domain; SPR imaging).
